# Results gathered from unrelated publications.
# Every numbered part comes from another study and shows a few of its results, in no order.

# Set 1
# Target: Prothrombin, mature alpha-thrombin (F2, Homo sapiens, UniProt P00734)
# Method: aptamer microarray, sandwich
# Form: DNA with 2'F-ANA
# Medium: in vitro
# Concentration: 200 nM
# Setting: whole 15-mer aptamer, many near background
# Together with: Cy3 exosite-II aptamer, 400 nM
# Reading: higher = stronger binding
# Oligonucleotide: GGTTGGTGTGGTTGG
Modification,mean fluorescence intensity
2'F-ANA at 2 3 4 6 8 9 13 15,405 a.u.
2'F-ANA at 5 6 10 14,43.7 a.u.
2'F-ANA at 2 3 6 11,623 a.u.
2'F-ANA at 1 3 4 6 7 11 13 14 15,63.7 a.u.
2'F-ANA at 2 3 6 7 8 10 12 13 14 15,224 a.u.
2'F-ANA at 2 5 8 11 12 14,45.4 a.u.
2'F-ANA at 1 2 3 7 8 10 11 12 13 15,130 a.u.
2'F-ANA at 1 4 6 7 14 15,64.2 a.u.
2'F-ANA at 3 6 8 9 10 11 12 13 15,463 a.u.
2'F-ANA at 2 4 5 7 10 14,47.4 a.u.
2'F-ANA at 2 3 4 7 8 10 11 13 14,179 a.u.
2'F-ANA at 1 2 4 6 8 11 12 14,207 a.u.
2'F-ANA at 1 7 8 9 11 13 14,56.5 a.u.
2'F-ANA at 4 8 9 12 13 15,372 a.u.
2'F-ANA at 3 4 6 8 10 11 12 13 15,221 a.u.
2'F-ANA at 1 3 4 6 7 9 10 12 14 15,52.8 a.u.
2'F-ANA at 2 3 6 8 10 11 13 15,290 a.u.
2'F-ANA at 4 6 12 14 15,128 a.u.
2'F-ANA at 4 6 9 10 11 14,57.1 a.u.
2'F-ANA at 1 5 6 8 10 11 12 14 15,87 a.u.
2'F-ANA at 3 4 6 8 12 14 15,334 a.u.
2'F-ANA at 4 6 7 9 10 11 12 13,80.4 a.u.

# Set 2
# Target: Histone acetyltransferase KAT6A, winged helix 2, GST fusion (KAT6A, Homo sapiens, UniProt Q92794, residues 85-181)
# Method: protein binding microarray
# Form: double-stranded DNA, one strand shown
# Medium: in vitro
# Concentration: not given
# Setting: 8-mer, flanks averaged, mean of 2 arrays, mostly near background
# Relative to: not given
# Reading: higher = stronger binding
# Residues (chain): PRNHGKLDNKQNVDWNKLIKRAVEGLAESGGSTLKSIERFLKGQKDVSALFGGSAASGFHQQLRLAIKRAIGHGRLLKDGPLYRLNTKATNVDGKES
Oligonucleotide,E-score
ACGACCTC,0.113
ATCTTCTG,-0.155
ATTTGGGC,0.0645
CGAACAAC,0.0406
GGCTCCCC,0.0177
AGAAATTG,0.0685
GGGTAAAA,0.0205
CTGCAAAG,0.14
AGCTCCTC,-0.0546
AAAGAGGA,-0.197
AGTAGCTG,-0.0377
CCATAGCC,-0.119
ACAAAACG,-0.0483
GGCCAGCA,0.118
AAGTGATT,-0.00932
AGAGCCTC,-0.0863
GGTTGTTA,-0.0396
ATAGTAGC,0.00559
ATCCGAGG,-0.0333
CAGTAGAC,-0.0953

# Set 3
# Target: Probable WRKY transcription factor 33, N-terminal DNA-binding domain (WRKY33, Arabidopsis thaliana, UniProt Q8S8P5, residues 169-264)
# Method: DNA-protein interaction ELISA
# Form: double-stranded DNA, one strand shown
# Medium: in vitro, bacterial lysate
# Concentration: not given
# Setting: whole dsDNA probe, crude lysate protein
# Relative to: highest signal in screen
# Reading: higher = stronger binding
# Target sequence (chain): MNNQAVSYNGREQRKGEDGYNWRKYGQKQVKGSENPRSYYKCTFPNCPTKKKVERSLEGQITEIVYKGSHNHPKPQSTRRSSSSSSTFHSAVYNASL
Oligonucleotide,relative absorbance
AAAAAATTCACTTTTACCTTTGTGTTAAAA,23.1 % of maximum
AAAAAAGATGATTAGTAATTGCGGAAAAAA,27.8 % of maximum
AAAAAAATGTTCAAGCTCGATCTACAAAAA,15.7 % of maximum
AAAAAATATGTAGCTGCCGTTACGCTAAAA,20.7 % of maximum
AAAAAATAATTACAAGTCGGCTCCACAAAA,21 % of maximum
AAAAAACCCGTTCTACCTTATTCCTGAAAA,26 % of maximum
AAAAAACTACAACCTGCGCGGTGGTCAAAA,22.6 % of maximum
AAAAAAGTGCACGACCCATTTATATAAAAA,26.5 % of maximum
AAAAAAATGATTTGCAGATCTCCGAGAAAA,13.6 % of maximum
AAAAAATCGGTACGCACCCCGGACTCAAAA,21.7 % of maximum
AAAAAATTGGTTCTCATTTCTACTTCAAAA,24 % of maximum
AAAAAAACTTTCTATTCTGGATAAGTAAAA,17.4 % of maximum
AAAAAAGTCCGCCCTTAATTCATATTAAAA,59.4 % of maximum
AAAAAAGGGTATACTCGCAGCCCCTAAAAA,19.5 % of maximum
AAAAAATTGCATTCCACCCTTAGGTTAAAA,26 % of maximum
AAAAAATTGCCGTCATAATTGTGGTAAAAA,22 % of maximum
AAAAAAGACCGCAGCAAGAATTAAATAAAA,25.8 % of maximum
AAAAAATGTCCATCTTGCGTCTGTATAAAA,13.5 % of maximum
AAAAAATTGCACCTGATACTAGGGTTAAAA,35.4 % of maximum
AAAAAATTCCTGTCCGCTCTCGCTCCAAAA,23.3 % of maximum
AAAAAAGTCTAGTCGTAAAAA,38.6 % of maximum

# Set 4
# Target: RNA binding protein fox-1 homolog 2, RRM domain, GST-SBP tag (RBFOX2, Homo sapiens, UniProt O43251-10, residues 100-194)
# Method: RNA Bind-n-Seq
# Form: RNA
# Medium: in vitro
# Concentration: 365 nM
# Setting: natural RNA segment, single round, ends assumed
# Relative to: no-protein control
# Reading: higher = stronger binding
# Residues (chain): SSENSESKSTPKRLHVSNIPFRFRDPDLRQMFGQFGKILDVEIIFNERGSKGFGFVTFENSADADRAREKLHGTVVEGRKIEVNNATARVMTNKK
Oligonucleotide,RBNS enrichment (R)
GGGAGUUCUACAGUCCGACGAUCUGCGCAUUGAUAUGUGGAGGCUGUUGAUUUCAACCUUUUUUAAACUUGUGUUUUUUAGUAAAAUUGCUUAUUUUUUUCCCAAAGGUGGAAUUUAAUGUUUUGUAGUGAUGUGGAAUUCUCGGGUGCCAA,0.798
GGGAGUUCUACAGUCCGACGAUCCACACACAGACACACAUACACCCAUGAUGUGAGCAAACACACACACGUGCGCCUUCAUAGCCCAGCCAAGGGCAUGCAGGCAGGGUGUGCUGCCUGAGAUGGCACCUCCCUGGAAUUCUCGGGUGCCAA,0.476
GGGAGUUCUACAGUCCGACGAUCUAAUGAAGUAUUCUGUUCCUAGUUGUGGGUGUGCUGGGUGGAGUGUGAAACACGACAUGAUCAAAGGAGACAGACAGUAUUUUGACUAAUAUGAAGUAGAGAUUACUUUAUGGAAUUCUCGGGUGCCAA,1.12
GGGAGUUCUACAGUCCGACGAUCUACCUUAAGUUUUUUUUGUUUUGUUUUUGUUUUUUUGUUUUUUGUUUUCCUUUAUGAAGAAAAAAUAAAAUAGUCACAUUUUAAUACUACUCUAGUUAGGACAGACUUGUUGGAAUUCUCGGGUGCCAA,0.829
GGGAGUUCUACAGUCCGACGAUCUGGCGGCUGCCGGCCUCUGGGGGAGGUGGCAGUUAUGCUGUUACUAGUGAUUUUAGGGCUUUGUUAUUUAACUUAUUUCAAGGGUGCUGUGCUCAGCCCUGCCCAUGGCUUGGAAUUCUCGGGUGCCAA,0.493
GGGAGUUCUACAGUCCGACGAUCGGGCGGUGGUGGCUCACGCCUUUAAUCCCAGCACUCGGGAGGCAGAGGCAGGUGGAUUUCUAAGUUCGAGGCCAGCCUGGUCUACAGAGUGAGUUCCAGGACAGCCAGGGUGGAAUUCUCGGGUGCCAA,0.244
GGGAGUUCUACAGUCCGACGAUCCUGGCUUGAGGAUUAGCUAAAGGUCUGUGUUUUCACAGCAGGAGUUAAUGUGCAGAGUUAACUGAACAGUGAUAUUCCAGUCCUCUUUUUUUAAGCUUCGGUGGCAGCUCUGGAAUUCUCGGGUGCCAA,0.36
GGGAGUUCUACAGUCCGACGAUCGCCCUUGCCUUUUCUGUAACUCACCAUUUAUUGUAUUUACAAAUCUAGUAAGGGUUUUGAUCACACCAAGUUCUUUGUAUUGAGAAGUCUAGGGCAGAGCUCUGGGGGAUUGGAAUUCUCGGGUGCCAA,0.406
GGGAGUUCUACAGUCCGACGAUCUUUCUCUGGAGGCAUUUUUGGGAAUGUACGUGUAAUAGGCUCUGCUUUGUAUACAGGAGAUAAUACCACAUCAUCGGUUAUCUCCAAACUCCAGUCUUCUCUCAACUGCCUGGAAUUCUCGGGUGCCAA,0.323
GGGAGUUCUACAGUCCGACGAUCUUGAAUCAGAUUUUUUAAAAGGGGUAUUUGUUUUUUUAUAACAGGUAUUGAAACAAGUUAACUUGCAUUCCUAUGUAAGAUAGGAGGGGCUGAGGGGAUCCCCAGUGUUUUGGAAUUCUCGGGUGCCAA,0.509
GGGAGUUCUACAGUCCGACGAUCCAGUGUACAAAAUAUGAAACAACUGUUUCCACACUUGCACCUGAUCAAGAGCAGUGCUUCUCCAUUUGUUUUGCAGAGAAAUGUUUUUCAUUUCCCGUGUGUUUCCAUUUUGGAAUUCUCGGGUGCCAA,0.326
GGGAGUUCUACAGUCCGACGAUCCCUGGACAGGACAUUUCACCUGCUAGUCUGUGCUAUUCUGGUAAAAUGAAGGGAUGCAUUGGACUAGACAAAAUGAUCUAAAAGUUUCCUUAUUAUAAAUUUUAGGAUUUUGGAAUUCUCGGGUGCCAA,0.509

# Set 5
# Target: Interferon regulatory factor 7, full length, phosphomimetic (IRF7, Homo sapiens, UniProt Q92985, residues 1-503, S101K/S471D/S472D/S475D/S476D/S477D/S483D/S484D/S487D)
# Method: protein-binding microarray
# Form: double-stranded DNA, one strand shown
# Medium: in vitro
# Concentration: 250 nM
# Setting: 60-bp whole probe
# Together with: salmon DNA 0.4 mg/ml
# Relative to: random background probes
# Reading: higher = stronger binding
# Shared flanks, not repeated: GCCTAGCAC … GTCTTGATTCGCTTGACGCTGCTG
# Target sequence (chain): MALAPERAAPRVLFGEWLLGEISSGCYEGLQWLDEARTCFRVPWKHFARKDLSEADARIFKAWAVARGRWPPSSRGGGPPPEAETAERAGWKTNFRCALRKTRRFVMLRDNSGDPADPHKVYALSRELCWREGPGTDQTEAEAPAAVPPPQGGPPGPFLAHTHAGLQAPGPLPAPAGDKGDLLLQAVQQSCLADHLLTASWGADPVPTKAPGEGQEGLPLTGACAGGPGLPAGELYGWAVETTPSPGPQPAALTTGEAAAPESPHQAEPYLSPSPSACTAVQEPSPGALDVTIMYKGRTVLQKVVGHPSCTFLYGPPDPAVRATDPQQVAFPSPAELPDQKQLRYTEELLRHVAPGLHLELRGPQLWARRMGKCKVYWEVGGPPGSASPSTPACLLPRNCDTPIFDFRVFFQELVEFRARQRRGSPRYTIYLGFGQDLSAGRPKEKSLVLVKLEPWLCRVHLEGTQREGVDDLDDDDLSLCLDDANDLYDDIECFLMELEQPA
Oligonucleotide,log fluorescence [z-score]
TTAGATTTCAGTTCCGATGAGTGCTAG,0.971
TTAGCTATCGGGTTTCGGTTAGTGCTA,5.36
TTAGGTATCGACTATCGGTAAGTGCTA,0.351
ACTTCCCTCGGGTTGCGGAGCGTGCTA,1.11
TTAGGGTTCCTTTTCCTTTAGTGCTAG,1.93
TTAGGTATCGGACAGGGTTAGTGCTAG,-0.186
CTTTTTAGAAATTTCTTTCTGTGCTAG,2.45
TCATATACCTGTATATCACTGTGCTAG,0.774
TTAGGTTTTGGGTATCGGTTAGTGCTA,1.52
TTATATTTCGGGTATCGATTAGTGCTA,1.98
TTAGGTTTCGACACTGGGGTAGTGCTA,3.08
GACGGTTTCGGGTTTCGCGACGTGCTA,10.9
GACGGGCTCGGTTTCGGGACGTGCTAG,5.64
TTAGGTTTCGGATCCGGTTAGTGCTAG,8.3
GACGGTTTCATTCTCCTGACGTGCTAG,3.83
ATTGCTTCCTCTTTCACTGGGTGCTAG,1.08
TTTGGTTTCGGTTCCGGTTAGTGCTAG,13.4
TTAGAAATCGGGACTGGATTAGTGCTA,-0.118
TTAGATATCAGGTATCGATTAGTGCTA,0.62
GACGGTATCGGGAATGGGGACGTGCTA,0.0634
GACTAACTGAGTTTCGAGACGTGCTAG,3.94
ATATATATCATTTAATTATAGTGCTAG,0.477
TAAGGTTTCCTACTGCTTTAGTGCTAG,1.36
GACGGAATGGGTATCGGGACGTGCTAG,-0.229
GACCGTTCCCTTTTCCTGACGTGCTAG,2.43

# For quick reference, copied from above (set 1):
Modification,mean fluorescence intensity
2'F-ANA at 2 3 4 7 8 10 11 13 14,179 a.u.
2'F-ANA at 2 3 4 6 8 9 13 15,405 a.u.
2'F-ANA at 3 6 8 9 10 11 12 13 15,463 a.u.
2'F-ANA at 1 2 3 7 8 10 11 12 13 15,130 a.u.
2'F-ANA at 1 4 6 7 14 15,64.2 a.u.
2'F-ANA at 2 3 6 7 8 10 12 13 14 15,224 a.u.
2'F-ANA at 1 7 8 9 11 13 14,56.5 a.u.
2'F-ANA at 2 3 6 11,623 a.u.
2'F-ANA at 4 6 7 9 10 11 12 13,80.4 a.u.
2'F-ANA at 1 5 6 8 10 11 12 14 15,87 a.u.
2'F-ANA at 4 6 12 14 15,128 a.u.
2'F-ANA at 5 6 10 14,43.7 a.u.
2'F-ANA at 4 8 9 12 13 15,372 a.u.
